Measurements gathered from unrelated publications.
Numbers after ± are the reported error.

Cc1ccc(NC(=O)c2ccc(CN3CCN(C)CC3)cc2)cc1Nc1nccc(-c2cncc(-c3oncc3C)c2)n1
Tmax (healthy volunteers, plasma; oral, 25.0 mg once daily, day 1, 7-day dosing, mean): 5 h

Cc1nc(-c2ccc(OCC(C)C)c(C#N)c2)sc1C(=O)O
Tmax at steady state (pediatric patients under sample A kg, plasma; oral, 20 mg once daily, fed, PopPK post hoc): 1.43 ± 0.4 h

C[C@@H](N)c1cc(Cl)ccc1Cn1c(=S)[nH]c(=O)c2[nH]ccc21
tmax (healthy Japanese volunteers, plasma; oral, 10 mg once daily, day 1, median): 0.51 h

N[C@@H](CC(=O)N1CCc2c(nc(C(F)(F)F)nc2C(F)(F)F)C1)CN1CC(F)(F)CCC1=O
Tmax at steady state (healthy Korean male volunteers, plasma; oral, 50 mg daily for 6 days, day 7, median, with: glimepiride 4 mg): 3 h

C=C(C)[C@@H]1CC[C@]2(NCCN3CCS(=O)(=O)CC3)CC[C@]3(C)[C@H](CC[C@@H]4[C@@]5(C)CC=C(C6=CC[C@@](CF)(C(=O)O)CC6)C(C)(C)[C@@H]5CC[C@]43C)[C@@H]12
tmax (HIV-1-positive treatment-naive adults, plasma; oral, 40 mg single dose, day 1, with food): 4.42 h

COc1cc(OC)c(/C=C/S(=O)(=O)Cc2ccc(OC)c(NCC(=O)O)c2)c(OC)c1
Tmax (cancer patients, phase I, plasma; oral, 140 mg twice daily, day 1 cycle 1): 1.13 ± 0.25 h

Cc1ccc(Sc2ccccc2N2CCNCC2)c(C)c1
Tmax (healthy men, plasma; oral, 10 mg once daily, fed, day 1): 12.7 h

CC[C@H](C)[C@H](NC(=O)[C@H](Cc1ccccc1)NC(=O)[C@H](CCC(=O)O)NC(=O)[C@H](CCCCNC(=O)COCCOCCNC(=O)COCCOCCNC(=O)CC[C@H](NC(=O)CCCCCCCCCCCCCCCCC(=O)O)C(=O)O)NC(=O)[C@H](C)NC(=O)[C@H](C)NC(=O)[C@H](CCC(N)=O)NC(=O)CNC(=O)[C@H](CCC(=O)O)NC(=O)[C@H](CC(C)C)NC(=O)[C@H](Cc1ccc(O)cc1)NC(=O)[C@H](CO)NC(=O)[C@H](CO)NC(=O)[C@@H](NC(=O)[C@H](CC(=O)O)NC(=O)[C@H](CO)NC(=O)[C@@H](NC(=O)[C@H](Cc1ccccc1)NC(=O)[C@@H](NC(=O)CNC(=O)[C@H](CCC(=O)O)NC(=O)C(C)(C)NC(=O)[C@@H](N)Cc1cnc[nH]1)[C@@H](C)O)[C@@H](C)O)C(C)C)C(=O)N[C@@H](C)C(=O)N[C@@H](Cc1c[nH]c2ccccc12)C(=O)N[C@@H](CC(C)C)C(=O)N[C@H](C(=O)N[C@@H](CCCNC(=N)N)C(=O)NCC(=O)N[C@@H](CCCNC(=N)N)C(=O)NCC(=O)O)C(C)C
tmax at steady state (Japanese subjects; subcutaneous once weekly, 0.5 mg, median): 30 h

Cn1c(-c2ccc(C(N)=O)cc2F)nnc1C(C)(C)Oc1c(F)cc(Cl)cc1F
Tmax range over subjects (young non-Japanese adults, plasma; oral, 20 mg single dose, day 1, high-dose multiple-dose study): 1 to 4 h

Excerpt of the above:
C[C@@H](N)c1cc(Cl)ccc1Cn1c(=S)[nH]c(=O)c2[nH]ccc21
tmax (healthy Japanese volunteers, plasma; oral, 10 mg once daily, day 1, median): 0.51 h
